Measurements gathered from unrelated publications.
Several values in a cell are separate wells, animals, samples, runs or records. ± marks the error that the study gave.

CSCC[C@H](N)C(=O)N[C@@H](C)C(=O)N[C@@H](CCCNC(=N)N)C(=O)N[C@@H](CCCNC(=N)N)C(=O)N[C@@H](CC(=O)O)C(=O)N[C@@H](CCCCN)C(=O)N[C@H](C(=O)N[C@@H](CC(=O)O)C(=O)N[C@@H](Cc1ccccc1)C(=O)N[C@@H](C)C(=O)N[C@@H](CCCNC(=N)N)C(=O)N[C@@H](CCCNC(=N)N)C(=O)N[C@@H](CCCNC(=N)N)C(=O)N[C@@H](CCCNC(=N)N)C(=O)NCCCCCC(=O)NCCCCC(NC(=O)CCCCCNC(=O)[C@H](CCCNC(=N)N)NC(=O)[C@H](CCCNC(=N)N)NC(=O)[C@H](CCCNC(=N)N)NC(=O)[C@H](CCCNC(=N)N)NC(=O)[C@H](C)NC(=O)[C@H](Cc1ccccc1)NC(=O)[C@H](CC(=O)O)NC(=O)[C@@H](NC(=O)[C@H](CCCCN)NC(=O)[C@H](CC(=O)O)NC(=O)[C@H](CCCNC(=N)N)NC(=O)[C@H](CCCNC(=N)N)NC(=O)[C@H](C)NC(=O)[C@@H](N)CCSC)[C@@H](C)O)C(=O)NCCCCC(NC(=O)C(CCCCNC(=O)CCCCCNC(=O)[C@H](CCCNC(=N)N)NC(=O)[C@H](CCCNC(=N)N)NC(=O)[C@H](CCCNC(=N)N)NC(=O)[C@H](CCCNC(=N)N)NC(=O)[C@H](C)NC(=O)[C@H](Cc1ccccc1)NC(=O)[C@H](CC(=O)O)NC(=O)[C@@H](NC(=O)[C@H](CCCCN)NC(=O)[C@H](CC(=O)O)NC(=O)[C@H](CCCNC(=N)N)NC(=O)[C@H](CCCNC(=N)N)NC(=O)[C@H](C)NC(=O)[C@@H](N)CCSC)[C@@H](C)O)NC(=O)CCCCCNC(=O)[C@H](CCCNC(=N)N)NC(=O)[C@H](CCCNC(=N)N)NC(=O)[C@H](CCCNC(=N)N)NC(=O)[C@H](CCCNC(=N)N)NC(=O)[C@H](C)NC(=O)[C@H](Cc1ccccc1)NC(=O)[C@H](CC(=O)O)NC(=O)[C@@H](NC(=O)[C@H](CCCCN)NC(=O)[C@H](CC(=O)O)NC(=O)[C@H](CCCNC(=N)N)NC(=O)[C@H](CCCNC(=N)N)NC(=O)[C@H](C)NC(=O)[C@@H](N)CCSC)[C@@H](C)O)C(N)=O)[C@@H](C)O (stereo partly shown)  tissue distribution (C57BL/6 mouse female, spleen; dose not given, 3 h; relative to: total): 0.61% and 1.32% and 0.88%
CC[C@H](C)[C@H](NC(=O)[C@H](C)NC(=O)[C@H](CCCCN)NC(=O)[C@H](CC(C)C)NC(=O)[C@@H](N)Cc1ccccc1)C(=O)N[C@@H](CCCCN)C(=O)N[C@@H](CCCCN)C(=O)N[C@@H](Cc1ccccc1)C(=O)NCC(=O)N[C@@H](CCCCN)C(=O)N[C@@H](CCC(=O)O)C(=O)N[C@@H](Cc1ccccc1)C(=O)N[C@@H](CCCCN)C(=O)N[C@@H](CCCCN)C(=O)N[C@H](C(=O)NCC(=O)N[C@@H](C)C(=O)N[C@@H](CCCCN)C(=O)N[C@@H](CC(C)C)C(=O)N[C@@H](CCCCN)C(=O)O)[C@@H](C)CC  hemolysis (human red blood cells; 32 mg/L, 1 h, mean of replicates): 0.511%
NC1CCN(C(=O)Oc2ccc(C3CCCC4(C3)OOC3(O4)C4CC5CC(C4)CC3C5)cc2)CC1 (racemic)  oral bioavailability (male ICR mice, plasma; oral, 50 mg/kg; relative to: intravenous 10 mg/kg): 120%
CC(C)[C@@H]1NC(=O)CNC(=O)[C@H](CC(N)=O)NC(=O)[C@H](CCCNC(=N)N)NC(=O)[C@H](Cc2ccc(O)cc2)NC(=O)[C@H](C(C)C)NC(=O)[C@@H](NC(=O)[C@@H](NC(=O)[C@H](CC(N)=O)NC(=O)[C@H](Cc2c[nH]c3ccccc23)NC(=O)[C@H](C)NC(=O)[C@H](Cc2ccccc2)NC(=O)CNC(=O)[C@H](CCCCN)NC(=O)[C@H](Cc2ccccc2)NC(=O)[C@H](Cc2ccccc2)NC(=O)[C@H](CCCCN)NC(=O)OCC2c3ccccc3-c3ccccc32)C(C)C)CSSC[C@@H](C(=O)N[C@@H](Cc2c[nH]cn2)C(=O)N[C@@H](CCCNC(=N)N)C(=O)N[C@@H](CCCNC(=N)N)C(=O)N[C@@H](C)C(=O)N[C@@H](CC(N)=O)C(N)=O)NC(=O)[C@H](C(C)C)NC(=O)[C@H](CCCNC(=N)N)NC1=O  neutrophils (ICR mice, blood; intraperitoneal, 5 mg/kg, day 5): 18.5 ± 1.01%
O=C1NC2(CC2)COc2ncc(F)cc2[C@H]2COCCN2c2ccn3ncc1c3n2  neutrophil percentage (Sprague-Dawley rat, female, blood; oral, 10 mg/kg/day, 4 weeks, end of treatment, subacute toxicity): 36.2 ± 12.5%
N=C(N)NCCC[C@H](NC(=O)[C@H](CCCNC(=N)N)NC(=O)[C@H](CCCNC(=N)N)NC(=O)[C@H](CCC(N)=O)NC(=O)[C@H](CCCNC(=N)N)NC(=O)[C@H](CCCNC(=N)N)NC(=O)[C@H](CCCCN)NC(=O)[C@H](CCCCN)NC(=O)[C@H](CCCNC(=N)N)NC(=O)CNC(=O)[C@H](Cc1ccc(O)cc1)NC(=O)[C@H](Cc1ccccc1)NC(=O)[C@H](Cc1ccccc1)NC(=O)[C@H](Cc1ccccc1)NC(=O)Cc1ccc2ccccc2c1)C(=O)O  health score (C57BL/6 mice; intraperitoneal, 10 mg/kg, 6 h; direction not given): 5
Cc1ccccc1-c1ccc(-c2nc(-c3ccc(CN(C)CCCC(=O)O)c([18F])c3)no2)cc1C(F)(F)F  tracer uptake (rat, bone; 2 h): 0.08 %ID/g
CC[C@H](C)[C@H](NC(=O)[C@H](Cc1ccc(O)cc1)NC(=O)[C@@H](NC(=O)[C@H](CCCNC(=N)N)NC(=O)[C@@H](N)CC(=O)O)C(C)C)C(=O)N[C@@H](Cc1c[nH]cn1)C(=O)N1CCC[C@H]1C(=O)O  AUC reduction (Beagle dog, plasma; sc, 10 mg/kg/day, day 27; relative to: day 0): 15%
CC[C@H](C)[C@H](NC(=O)[C@H](CCCCN)NC(=O)CNC(=O)[C@H](CC(C)C)NC(=O)[C@H](Cc1ccccc1)NC(=O)[C@H](CCCCN)NC(=O)[C@H](CO)NC(=O)[C@H](Cc1ccccc1)NC(=O)[C@H](Cc1c[nH]c2ccccc12)NC(=O)[C@H](CCC(N)=O)NC(=O)[C@@H](NC(=O)[C@H](Cc1ccccc1)NC(=O)CCCCCNC(=O)CN1CCN(CC(=O)O)CCN(CC(=O)O)CCN(CC(=O)O)CC1)C(C)C)C(=O)N[C@@H](CCC(=O)O)C(=O)N1CCC[C@H]1C(=O)N[C@@H](CC(=O)O)C(=O)N[C@H](C(=O)N[C@@H](CO)C(=O)N[C@@H](CCC(N)=O)C(=O)N[C@H](C(=O)N[C@@H](CCC(N)=O)C(=O)N[C@@H](CC(=O)O)C(=O)N1CCC[C@H]1C(=O)N[C@@H](CC(N)=O)C(=O)N[C@@H](CC(=O)O)C(=O)N[C@@H](CCC(N)=O)C(=O)N[C@@H](Cc1ccc(O)cc1)C(=O)N[C@@H](CCC(=O)O)C(=O)N1CCC[C@H]1C(=O)N[C@@H](Cc1ccccc1)C(=O)O)C(C)C)C(C)C [copper-64 labelled]  SUVmean (dynamic PET; mouse, CT26 tumour, untreated, tumour; intravenous, 100 µCi/mouse, 3500 s): 1.33 SUV
CSCC[C@H](NC(=O)[C@H](CC(C)C)NC(=O)[C@H](CCC(N)=O)NC(=O)[C@H](C)NC(=O)[C@H](Cc1c[nH]c2ccccc12)NC(=O)[C@H](Cc1ccc(O)cc1)NC(=O)[C@H](CCC(=O)O)NC(=O)[C@H](CC(C)C)NC(=O)[C@H](Cc1ccccc1)NC(=O)[C@@H](NC(=O)[C@H](CC(C)C)NC(=O)[C@H](CCCCN)NC(C)=O)[C@@H](C)O)C(=O)N[C@@H](CCC(N)=O)C(=O)N[C@@H](CCCCN)C(=O)NCCCCCC(=O)N[C@@H](CCCCN)C(=O)N[C@@H](CC(C)C)C(=O)N[C@H](C(=O)N[C@@H](Cc1ccccc1)C(=O)N[C@@H](CC(C)C)C(=O)N[C@@]1(C)CCCC=CCCC[C@@](C)(C(=O)N[C@@H](CC(C)C)C(=O)N[C@@H](CCSC)C(=O)N[C@@H](CCC(N)=O)C(=O)N[C@@H](CCCCN)C(N)=O)NC(=O)[C@H](C)NC(=O)[C@H](Cc2c[nH]c3ccccc23)NC(=O)[C@H](Cc2ccc(O)cc2)NC1=O)[C@@H](C)O  helical content (circular dichroism; phosphate buffer; pH 7.2, room temperature): 73.6%

Some of these lines once more:
CC[C@H](C)[C@H](NC(=O)[C@H](CCCCN)NC(=O)CNC(=O)[C@H](CC(C)C)NC(=O)[C@H](Cc1ccccc1)NC(=O)[C@H](CCCCN)NC(=O)[C@H](CO)NC(=O)[C@H](Cc1ccccc1)NC(=O)[C@H](Cc1c[nH]c2ccccc12)NC(=O)[C@H](CCC(N)=O)NC(=O)[C@@H](NC(=O)[C@H](Cc1ccccc1)NC(=O)CCCCCNC(=O)CN1CCN(CC(=O)O)CCN(CC(=O)O)CCN(CC(=O)O)CC1)C(C)C)C(=O)N[C@@H](CCC(=O)O)C(=O)N1CCC[C@H]1C(=O)N[C@@H](CC(=O)O)C(=O)N[C@H](C(=O)N[C@@H](CO)C(=O)N[C@@H](CCC(N)=O)C(=O)N[C@H](C(=O)N[C@@H](CCC(N)=O)C(=O)N[C@@H](CC(=O)O)C(=O)N1CCC[C@H]1C(=O)N[C@@H](CC(N)=O)C(=O)N[C@@H](CC(=O)O)C(=O)N[C@@H](CCC(N)=O)C(=O)N[C@@H](Cc1ccc(O)cc1)C(=O)N[C@@H](CCC(=O)O)C(=O)N1CCC[C@H]1C(=O)N[C@@H](Cc1ccccc1)C(=O)O)C(C)C)C(C)C [copper-64 labelled]  SUVmean (dynamic PET; mouse, CT26 tumour, untreated, tumour; intravenous, 100 µCi/mouse, 3500 s): 1.33 SUV
